Measured values collected from several papers.
Numbers after ± are the reported error.

SMILES	cell line	test	test system	conditions	how to read	quantity	result
CC(C)c1ccc(C[C@H](C)C(=O)N[C@@H]2O[C@H](CO)[C@@H](O)[C@H](O)[C@H]2O)cc1	HEL fibroblasts	cell morphology	–	3 days	–	minimal cytotoxic concentration	> 100 µM
CC=C(C)C(=O)OC1C(O)C2OC(COC(=O)CCC(=O)CCCCCCC(CCCCC)OC3OC(C)C(O)C(O)C3O2)C1OC(=O)C=Cc1ccccc1 (centres unmarked)	U-937	cytotoxicity	–	–	–	IC50	0.0725 µM
CC(=O)Oc1ccc(Cn2cc(C)c(=O)[nH]c2=O)cc1C1OC(c2ccc(Cl)cc2)=NN1C(C)=O (centres unmarked)	HEL fibroblasts	cell morphology, microscopy	–	–	–	minimum cytotoxic concentration	≥ 20 µM
N=C(N)NCCC[C@H]1NC(=O)[C@H](CCCN)NC(=O)[C@@H](Cc2c[nH]cn2)NC(=O)[C@H](Cc2ccc(O)cc2)NC(=O)[C@@H](Cc2ccc(O)cc2)NC(=O)[C@H](Cc2ccccc2)NC(=O)[C@@H](Cc2c[nH]c3ccccc23)NC(=O)[C@H](CO)NC1=O	erythrocytes	hemolysis	–	–	–	HD50	98 µM
COc1ccnc(Nc2c3c(nc4cc(C)ccc24)CCCC3)c1	HepG2	MTT	–	50 µM, 24 h, 10% FBS	–	inhibition	-9.57 ± 0.28%
CCc1ccc([C@H](C)CC(=O)NC(=O)N[C@@H]2O[C@H](CO)[C@@H](O)[C@H](O)[C@H]2O)cc1	HEL fibroblasts	cell morphology	–	3 days	–	minimal cytotoxic concentration	> 100 µM
CC(C)C1=CC2=C(C=O)C[C@@H]3[C@](C)(CCC[C@@]3(C)C(=O)OCC#CCN3CCOCC3)[C@H]2CC1	BHK-21-hACE2	–	–	20.0 µM, 48 (unit not given)	–	viability	103%
CC(=O)OC[C@H]1O[C@@H](NC(=O)CCCc2ccc3c(c2)CCCC3)[C@H](OC(C)=O)[C@@H](OC(C)=O)[C@@H]1OC(C)=O	HEL fibroblasts	cell morphology	–	3 days	–	minimal cytotoxic concentration	> 100 µM
CCc1nn(C)c2nc(-c3ccc(C(=O)O)cc3)nc(NCc3ccccc3)c12	HCT-8	MTS	–	100 µM	–	cytotoxicity	not toxic
FC(F)(F)c1cccc(Nc2c3c(nc4ccccc24)CCCC3)c1	HepG2	MTT	–	50 µM, 24 h, 10% FBS	–	inhibition	34.4 ± 1.72%
CCCCn1cc(C(=O)O)c(=O)c2cc(F)c(Nc3ccccc3Cl)c(N)c21	SW-620	cell growth, SRB	–	72 h	–	IC50	22.8 ± 2.76 µg/mL
CC(=O)N[C@@H](CC(=O)O)C(=O)N[C@@H](CCC(=O)O)C(=O)N[C@H](C(=O)N[C@@H](CC(=O)O)C(=O)NCC(=O)NCC(=O)NCC(=O)NCCNC(=O)OCC1c2ccccc2-c2ccccc21)C(C)C	HepG2	–	–	200 µM, 2 h, 37 °C	–	metabolized fraction	48.7%
CCCCn1cc(C(=O)O)c(=O)c2cc(F)c(Nc3cccc(Cl)c3)c([N+](=O)[O-])c21	SW-620	cell growth or viability, SRB	–	–	–	IC50	253 µM
NCCc1ccc(-c2nc3cc(OCCF)ccc3n3cccc23)cc1	HEK293 DR-GFP	homologous recombination, inhibitor, DR-GFP reporter	–	max tested 40 µM	–	maximum tolerated concentration	10 µM
CCCCn1cc(C(=O)O)c(=O)c2cc(F)c(Nc3cccc(Cl)c3)c(N)c21	HCT-116	cell growth, SRB	–	72 h	–	IC50	0.34 ± 0.04 µg/mL
CCCN(CCC)CC1=C(O)C(=O)c2ccccc2C1=O	BGM (monkey kidney)	MTT	10% FCS	24 h	–	median lethal concentration	2470 ± 240 µM
CCCCCCCCCCOc1c(O)cc(C(=O)OC2Cc3c(O)cc(O)cc3OC2c2cc(O)c(O)c(O)c2)cc1O (centres unmarked)	U-87 MG	CCK-8	–	50 µM, 24 h	–	cell death	13.9%
N=C(N)NCCC[C@@H]1NC(=O)[C@H](Cc2csc3ccccc23)NC(=O)[C@@H](Cc2ccccc2)NC(=O)[C@H](Cc2ccccc2)NC(=O)[C@H](CCC(=O)NCCOCCOCC(=O)N[C@@H](CCCCNC(=O)c2ccc3c(c2)C(=O)OC32c3ccc4cc(O)ccc4c3Oc3c2ccc2cc(O)ccc32)C(N)=O)NC(=O)[C@@H](CCCNC(=N)N)NC(=O)[C@H](CCCNC(=N)N)NC(=O)[C@@H](CCCNC(=N)N)NC1=O	HeLa	flow cytometry	–	2.0 µM, 2 h, 1% FBS	reference: CPP12	cellular uptake	84 ± 10%
CC(=O)N[C@@H](CC[S+](C)[Ru-4]123([S+](C)CC[C@H](NC(C)=O)C(=O)O)[n+]4ccc5ccccc5c4Nc4cccc([n+]41)-c1cccc([n+]12)Nc1c2ccccc2cc[n+]13)C(=O)[O-].F[P-](F)(F)(F)(F)F (some centres unmarked)	A-431 and A549	–	–	520 nm light, 75 J/cm2	reference: dark over light EC50	phototoxicity index	≤ 22
CC(=O)Oc1ccc(Cn2cc(C)c(=O)[nH]c2=O)cc1C1OC(c2cccc(Cl)c2)=NN1C(C)=O (centres unmarked)	HEL fibroblasts	cell morphology alteration	–	–	–	minimum cytotoxic concentration	100 µM
CC(NC(=O)C(Cc1ccccc1)NC(=O)OCc1ccccc1)C(=O)CF (centres unmarked)	Vero E6	–	–	concentration not given	–	cytotoxicity	0%
c1ccc(Nc2c3c(nc4ccccc24)CCCC3)cc1	HepG2	MTT	–	50 µM, 24 h, 10% FBS	–	inhibition	5 ± 0.3%

SMILES	cell line	test	test system	conditions	how to read	quantity	result
CC[C@H](C)[C@H](NC(=O)[C@H](C)NC(=O)CNC(=O)[C@H](CCCCN)NC(=O)[C@H](CC(N)=O)NC(=O)[C@H](CO)NC(=O)CNC(=O)[C@@H](NC(=O)[C@H](CC(=O)O)NC(=O)[C@H](CCC(=O)O)NC(=O)[C@H](C)NC(=O)[C@H](Cc1ccccc1)NC(=O)[C@H](Cc1ccccc1)NC(=O)[C@@H](NC(=O)[C@H](CC(C)C)NC(=O)[C@H](CCCCN)NC(=O)[C@H](CCC(N)=O)NC(=O)[C@H](Cc1c[nH]cn1)NC(=O)[C@H](CCCNC(=N)N)NC(=O)[C@@H](NC(=O)[C@H](CCC(=O)O)NC(=O)[C@H](Cc1ccccc1)NC(=O)CNC(=O)[C@H](CO)NC(=O)[C@H](CC(=O)O)NC(=O)[C@H](Cc1c[nH]cn1)NC(=O)CNC(=O)[C@H](Cc1ccccc1)NC(=O)[C@H](CCC(=O)O)NC(=O)[C@H](C)NC(=O)[C@@H](N)CC(=O)O)C(C)C)C(C)C)C(C)C)C(=O)N[C@H](C(=O)NCC(=O)N[C@@H](CC(C)C)C(=O)N[C@@H](CCSC)C(=O)N[C@H](C(=O)NCC(=O)NCC(=O)N[C@H](C(=O)N[C@H](C(=O)N[C@H](C(=O)N[C@@H](C)C(=O)O)[C@@H](C)CC)C(C)C)C(C)C)C(C)C)[C@@H](C)CC	NGF-differentiated PC-12 cells	MTT	–	10 µM, 24 h	–	cytotoxicity	not toxic
O=C(COc1ccc(-c2ccccc2)cc1)N[C@@H]1O[C@H](CO)[C@@H](O)[C@H](O)[C@H]1O	HEL fibroblasts	cell morphology	–	3 days	–	minimal cytotoxic concentration	> 100 µM
Cc1ccc(/C=C/C(=O)O)cc1-c1cc2c(cc1C)C(C)(C)CCC2(C)C	TK6	cytotoxicity, GreenScreen	–	together with: rat liver S9	–	lowest effective concentration	21.3 µg/mL
Cc1cc2c(c(=O)o1)C=C1CCC(C(C)CNCc3ccc(O)cc3)CC1O2 (centres unmarked)	MC65	–	–	low serum	–	TD50	49.5 µM
CCCCCn1c(SC(C(=O)NCc2ccccc2)C(=O)NCc2ccccc2)nc2cc(C(=O)Nc3cccc(C(F)(F)F)c3)ccc2c1=O	PC-12	MTS	–	10 µM, 48 h	–	cytotoxicity	not toxic
CCCCc1ccc(N(C)C(=O)Oc2cc3oc4cc5c(c(O)c4c(=O)c3c(CC=C(C)C)c2OC)C=CC(C)(C)O5)cc1	PC-12	cell proliferation, MTT	–	10 µM, 24 h	–	inhibition	5.2%
CC(=O)Oc1ccc(Cn2ccc(=O)[nH]c2=O)cc1C1OC(c2ccccc2)=NN1C(C)=O (centres unmarked)	HEL fibroblasts	cell morphology, microscopy	–	–	–	minimum cytotoxic concentration	100 µM
Cc1ccc(NCCN(C)CCNc2ccnc3cc(Cl)ccc23)c2c(=O)c3ccccc3sc12	Vero E6	cytotoxicity	–	30.0 µM, 72 (unit not given)	–	viability reduction	< 20%
O=C1C(O)=C(CN2CCCC2)C(=O)c2ccccc21	BGM (monkey kidney)	MTT	10% FCS	24 h	–	median lethal concentration	≥ 3890 µM
O=c1cc[s+]([O-])c2ccccc12 (single isomer, unassigned; (-))	U-937	MTT	–	72 h	–	CC50	459 µM
[Cl-].[Cl-].[Ni+2].c1ccc(CN2CCNCCN(Cc3ccccc3)CCNCC2)cc1	THP-1	cytotoxicity	–	–	–	IC90	> 20 µM
CCN(CC)CC#CCOC(=O)[C@]1(C)CCC[C@@]2(C)[C@H]1CC(C=O)=C1C=C(C(C)C)CC[C@@H]12	BHK-21-hACE2	–	–	20.0 µM, 48 (unit not given)	–	viability	< 50%
CC(=O)Oc1ccc(Cn2ccc(=O)[nH]c2=O)cc1C1OC(c2ccc(Cl)cc2)=NN1C(C)=O (centres unmarked)	HEL fibroblasts	cell morphology, microscopy	–	–	–	minimum cytotoxic concentration	100 µM
CC=C(C)C(=O)OC1C(O)C2OC(COC(=O)CCCCCCCCCC(CCCCC)OC3OC(C)C(OC(C)=O)C(O)C3O2)C1OC(=O)C=Cc1ccccc1 (centres unmarked)	MCF-10A	cytotoxicity	–	–	–	IC50	0.0307 µM
CC(=O)Oc1ccc(Cn2cc(F)c(=O)[nH]c2=O)cc1C1OC(c2cccc(Cl)c2)=NN1C(C)=O (centres unmarked)	HEL fibroblasts	cell morphology, microscopy	–	–	–	minimum cytotoxic concentration	100 µM
COc1cccc(N(C)C(=O)Oc2cc3oc4cc5c(c(O)c4c(=O)c3c(CC=C(C)C)c2OC)C=CC(C)(C)O5)c1	PC-12	cell proliferation, MTT	–	10 µM, 24 h	–	inhibition	0%
CCCCn1cc(C(=O)O)c(=O)c2cc(F)c3c(nnn3-c3ccccc3Cl)c21	SW-620	cell growth or viability, SRB	–	–	–	IC50	120 µM
Cc1cc(O)c2c(C(=O)[O-])[n+]3n(c2c1)CCCC3	HepG2	cell growth or viability, CCK-8	–	20 µM, 24 h	–	viability	92.3%
CCCCn1cc(C(=O)O)c(=O)c2cc(F)c(Nc3ccccc3Cl)c([N+](=O)[O-])c21	SW-620	cell growth or viability, SRB	–	–	–	IC50	272 µM
CN1C/C(=C\c2ccccc2)C2=NN(C(N)=S)[C@H](c3ccccc3)[C@@H]2C1	CHO	resazurin	–	48 h, 10% FBS	–	highest non-cytotoxic concentration	> 200 µg/mL
CC(=O)OC[C@H]1O[C@@H](NC(=O)/C=C/c2ccc(-c3ccccc3)cc2)[C@H](OC(C)=O)[C@@H](OC(C)=O)[C@@H]1OC(C)=O	HEL fibroblasts	cell morphology	–	3 days	–	minimal cytotoxic concentration	> 100 µM
c1cc(Nc2c3c(nc4ccccc24)CCCC3)c2cccnc2c1	HepG2	MTT	–	50 µM, 24 h, 10% FBS	–	inhibition	9.55 ± 0.56%

For quick reference, copied from above:
SMILES	cell line	test	test system	conditions	how to read	quantity	result
N=C(N)NCCC[C@@H]1NC(=O)[C@H](Cc2csc3ccccc23)NC(=O)[C@@H](Cc2ccccc2)NC(=O)[C@H](Cc2ccccc2)NC(=O)[C@H](CCC(=O)NCCOCCOCC(=O)N[C@@H](CCCCNC(=O)c2ccc3c(c2)C(=O)OC32c3ccc4cc(O)ccc4c3Oc3c2ccc2cc(O)ccc32)C(N)=O)NC(=O)[C@@H](CCCNC(=N)N)NC(=O)[C@H](CCCNC(=N)N)NC(=O)[C@@H](CCCNC(=N)N)NC1=O	HeLa	flow cytometry	–	2.0 µM, 2 h, 1% FBS	reference: CPP12	cellular uptake	84 ± 10%
CC(=O)N[C@@H](CC[S+](C)[Ru-4]123([S+](C)CC[C@H](NC(C)=O)C(=O)O)[n+]4ccc5ccccc5c4Nc4cccc([n+]41)-c1cccc([n+]12)Nc1c2ccccc2cc[n+]13)C(=O)[O-].F[P-](F)(F)(F)(F)F (some centres unmarked)	A-431 and A549	–	–	520 nm light, 75 J/cm2	reference: dark over light EC50	phototoxicity index	≤ 22
CC(=O)Oc1ccc(Cn2cc(C)c(=O)[nH]c2=O)cc1C1OC(c2cccc(Cl)c2)=NN1C(C)=O (centres unmarked)	HEL fibroblasts	cell morphology alteration	–	–	–	minimum cytotoxic concentration	100 µM
CC(NC(=O)C(Cc1ccccc1)NC(=O)OCc1ccccc1)C(=O)CF (centres unmarked)	Vero E6	–	–	concentration not given	–	cytotoxicity	0%
